Measurements of several laboratories.
Lines come from different studies, so protocols differ. ± gives the spread as reported.
Napepld: N-acyl-phosphatidylethanolamine-hydrolyzing phospholipase D (Napepld, Mus musculus, UniProt Q8BH82)
AGTR1: Type-1 angiotensin II receptor (AGTR1, Homo sapiens, UniProt P30556)
GLP1R: Glucagon-like peptide 1 receptor (GLP1R, Homo sapiens, UniProt P43220)
NMUR2: Neuromedin-U receptor 2 (NMUR2, Homo sapiens, UniProt Q9GZQ4)
GIPR: Gastric inhibitory polypeptide receptor (GIPR, Homo sapiens, UniProt P48546)

Compound | target | test | system | setting | scale | Emax
Cn1ccc2c(N3CCN(CCCCOc4ccc5c(c4)NC(=O)CC5)CC3)cccc21 | D(2) dopamine receptor (DRD2, Homo sapiens, UniProt P14416, S193A) | Gi/o cAMP inhibition, agonist, GloSensor | – | – | relative to: quinpirole | 67%
Cc1cc(F)ccc1S(=O)(=O)N1CCC(C(=O)Nc2nc3c(C)cccc3s2)CC1 | Napepld | enzyme activity, activator, fluorescence, PED-A1 substrate | – | – | relative to: vehicle | < 1.6 fold
COc1ccc(F)cc1CC1(NC(=O)c2cc(N3C[C@@H](C)O[C@H](C)C3)ccn2)CC1 | Sodium- and chloride-dependent creatine transporter 1 (SLC6A8, Homo sapiens, UniProt P48029, P544L) | creatine transport, refers to: P544L | U-2 OS | 24 h | relative to: DMSO | 2.2 fold
CCCSC[C@H](NC(=O)[C@H](Cc1ccc(O)cc1)NC(=O)[C@@H](NC(=O)[C@H](CCCNC(=N)N)NC(=O)CNC)C(C)C)C(=O)N[C@@H](Cc1c[nH]cn1)C(=O)N1CCC[C@H]1C(=O)N[C@@H](CC(C)C)C(=O)O | AGTR1 | β-arrestin recruitment, agonist | CHO | – | – | 83%
O=C(CNC(=O)c1ccc(O)c(-c2ccc(Cl)c(Cl)c2)c1)NCCc1ccc(Cl)c(Cl)c1 | Probable G-protein coupled receptor 132 (GPR132, Homo sapiens, UniProt Q9UNW8) | β-arrestin recruitment, agonist | – | – | – | 100%
COc1cc(Cl)ccc1NC(=O)CCCS(=O)(=O)c1nc(-c2ccc(OC)c(OC)c2)cc(C(F)(F)F)n1 | GLP1R | cAMP accumulation, positive allosteric modulator | HEK-293T overexpressing GLP1R | with: EC20 GLP-1 | – | 64 ± 30%
CC(C)C[C@H](NC(=O)[C@H](Cc1ccccc1)NC(=O)CCCCCNC(=O)[C@@H](N)CS)C(=O)N[C@@H](Cc1ccccc1)C(=O)N[C@@H](CCCNC(=N)N)C(=O)N1Cc2ccccc2C[C@H]1C(=O)N[C@@H](CCCNC(=N)N)C(=O)N[C@@H](CC(N)=O)C(=O)NCCCCCC(=O)N[C@@H](CS)C(N)=O | NMUR2 | calcium signalling, agonist | HEK293 expressing receptor | 10 µM | relative to: human NmU | 97.8 ± 11.8%
CSCC[C@H](NC(=O)[C@H](Cc1ccc(O)cc1)NC(=O)[C@@H](NC(=O)[C@H](CCCNC(=N)N)NC(=O)[C@@H](N)CC(=O)O)C(C)C)C(=O)N[C@@H](Cc1c[nH]cn1)C(=O)N1CCC[C@H]1C(=O)N[C@@H](CC(C)C)C(=O)O | AGTR1 | β-arrestin recruitment, agonist | CHO | – | – | 73%
CC[C@H](C)[C@H](NC(=O)[C@H](CO)NC(=O)[C@H](Cc1ccc(O)cc1)NC(=O)[C@H](CC(=O)O)NC(=O)[C@H](CO)NC(=O)[C@@H](NC(=O)[C@H](Cc1ccccc1)NC(=O)[C@@H](NC(=O)CNC(=O)[C@@H]1CCCN1C(=O)[C@H](C)NC(=O)[C@@H](N)Cc1ccc(O)cc1)[C@@H](C)O)[C@@H](C)CC)C(=O)N[C@@H](C)C(=O)N[C@@H](CCSC)C(=O)N[C@@H](CC(=O)O)C(=O)N[C@@H](CCCCN)C(=O)N[C@H](C(=O)N[C@@H](CCCNC(=N)N)C(=O)N[C@@H](CCC(N)=O)C(=O)N[C@@H](CCC(N)=O)C(=O)N[C@@H](CC(=O)O)C(=O)N[C@@H](Cc1ccccc1)C(=O)N[C@H](C(=O)N[C@@H](CC(N)=O)C(=O)N[C@@H](Cc1c[nH]c2ccccc12)C(=O)N[C@@H](CC(C)C)C(=O)N[C@@H](CC(C)C)C(=O)N[C@@H](C)C(=O)N[C@@H](CCC(N)=O)C(=O)N[C@@H](CCCCN)C(=O)NCC(=O)N[C@@H](CCCCN)C(=O)N[C@@H](CCCCN)C(=O)N[C@@H](CC(N)=O)C(=O)N[C@@H](CC(=O)O)C(=O)N[C@@H](Cc1c[nH]c2ccccc12)C(=O)N[C@@H](CCCCN)C(=O)N[C@@H](Cc1c[nH]cn1)C(=O)N[C@@H](CC(N)=O)C(=O)N[C@@H](CC(C)C)C(=O)N[C@H](C(=O)N[C@@H](CCC(N)=O)C(=O)O)[C@@H](C)O)C(C)C)[C@@H](C)CC | GIPR | cAMP, agonist | COS-7 | – | – | 73%
CCCCCCCCCCCCCCCCSCc1cc2cc(c1)CSC[C@H](N)C(=O)NCCCCCC(=O)N[C@@H](Cc1ccccc1)C(=O)N[C@@H](CC(C)C)C(=O)N[C@@H](Cc1ccccc1)C(=O)N[C@@H](CCCNC(=N)N)C(=O)N1Cc3ccccc3C[C@H]1C(=O)N[C@@H](CCCNC(=N)N)C(=O)N[C@@H](CC(N)=O)C(=O)NCCCCCC(=O)N[C@H](C(N)=O)CSC2 | NMUR2 | calcium signalling, agonist | HEK293 expressing receptor | 10 µM | relative to: human NmU | 127 ± 10.8%
COc1ccc(-c2cc(C(F)(F)F)nc(S(=O)(=O)CCCC(=O)Nc3ccc(F)cc3F)n2)cc1OC | GLP1R | cAMP accumulation, positive allosteric modulator | HEK-293T overexpressing GLP1R | with: EC20 GLP-1 | – | 49 ± 21%
Cc1cc(F)ccc1S(=O)(=O)N1CCC(C(=O)Nc2nc3ccccc3s2)CC1 | Napepld | enzyme activity, activator, fluorescence, PED-A1 substrate | – | – | relative to: vehicle | < 1.2 fold
COc1ccc(-c2cc(C(F)(F)F)nc(S(=O)(=O)CCCC(=O)Nc3ccc(F)c(Cl)c3)n2)cc1OC | GLP1R | cAMP, agonist | – | – | – | 46%
CC[C@H](C)[C@H](NC(=O)[C@H](CO)NC(=O)[C@H](Cc1ccc(O)cc1)NC(=O)[C@H](CC(=O)O)NC(=O)[C@H](CO)NC(=O)[C@@H](NC(=O)[C@H](Cc1ccccc1)NC(=O)[C@@H](NC(=O)CNC(=O)[C@H](CCC(=O)O)NC(=O)[C@H](C)NC(=O)[C@@H](N)Cc1ccc(O)cc1)[C@@H](C)O)[C@@H](C)CC)C(=O)N[C@@H](C)C(=O)N[C@@H](CCSC)C(=O)N[C@@H](CC(=O)O)C(=O)N[C@@H](CCCCN)C(=O)N[C@H](C(=O)N[C@@H](CCCNC(=N)N)C(=O)N[C@@H](CCC(N)=O)C(=O)N[C@@H](CCC(N)=O)C(=O)N[C@@H](CC(=O)O)C(=O)N[C@@H](Cc1ccccc1)C(=O)N[C@H](C(=O)N[C@@H](CC(N)=O)C(=O)N[C@@H](Cc1c[nH]c2ccccc12)C(=O)N[C@@H](CC(C)C)C(=O)N[C@@H](CC(C)C)C(=O)N[C@@H](C)C(=O)N[C@@H](CCC(N)=O)C(=O)N[C@@H](CCCCN)C(=O)NCC(=O)N[C@@H](CCCCN)C(=O)N[C@@H](CCCCN)C(=O)N[C@@H](CC(N)=O)C(=O)N[C@@H](CC(=O)O)C(=O)N[C@@H](Cc1c[nH]c2ccccc12)C(=O)N[C@@H](CCCCN)C(=O)N[C@@H](Cc1c[nH]cn1)C(=O)N[C@@H](CC(N)=O)C(=O)N[C@@H](CC(C)C)C(=O)N[C@H](C(=O)N[C@@H](CCC(N)=O)C(=O)O)[C@@H](C)O)C(C)C)[C@@H](C)CC | GIPR | cAMP, agonist | COS-7 | – | – | 113%
COc1ccc(-c2cc(C(F)(F)F)nc(SCC(=O)N(C)c3ccccc3)n2)cc1OC | GLP1R | cAMP accumulation, positive allosteric modulator | HEK-293T overexpressing GLP1R | with: EC20 GLP-1 | – | 32 ± 1.3%
CCCCCCCCCCCCCCCC(=O)NCCOCCOCCOCCOCCOCCOCCOCCOCCOCCOCCOCCOCCC(=O)NC(C)(C)C(=O)N[C@@H](Cc1ccccc1)C(=O)N[C@@H](CC(C)C)C(=O)N[C@@H](Cc1ccccc1)C(=O)N[C@@H](CCCNC(=N)N)C(=O)N1CCC[C@H]1C(=O)N[C@@H](CCCNC(=N)N)C(=O)N[C@@H](CC(N)=O)C(=O)NC(C)(C)C(N)=O | NMUR2 | calcium signalling | HEK293 | – | relative to: human neuromedin U | 66.5 ± 0.1%
CCCCCSC[C@H](NC(=O)[C@H](Cc1ccc(O)cc1)NC(=O)[C@@H](NC(=O)[C@H](CCCNC(=N)N)NC(=O)CNC)C(C)C)C(=O)N[C@@H](Cc1c[nH]cn1)C(=O)N1CCC[C@H]1C(=O)N[C@@H](CC(C)C)C(=O)O | AGTR1 | β-arrestin recruitment, agonist | CHO | – | – | 80%
COc1ccccc1-c1cc(C(F)(F)F)nc(S(=O)(=O)CCCC(=O)Nc2ccc(F)cc2F)n1 | GLP1R | cAMP, agonist | – | – | – | 48%
